Measured values from different studies.
Protocols differ between the studies behind these lines. Values joined by “and” are separate records of one study, mostly repeats; a detail may differ. ± gives the spread as reported.

Under “phospho-Ser73 c-Jun to total ratio”, `CSc1cc(Oc2ccnc3[nH]c(=O)cnc23)ccc1NC(=O)Nc1cc(C(C)(C)C)nn1-c1ccccc1` is recorded as 0.8 (patient-derived A cell clone line; reverse phase protein array; human; 1 µM, 4 h; baseline: DMSO).
For `CC(C)=CCNc1ncnc2c1ncn2[C@@H]1O[C@H](CO)[C@@H](O)[C@H]1O`, the AP-TGFα release was 10.8% and 12.3% and 13% (mock-transfected cells; TGFα shedding, agonist; 100 µM; baseline: unstimulated vehicle control).
With `Cc1nn(-c2nc3c(F)cc(F)cc3s2)c(O)c1C(c1cccc(C(F)(F)F)c1)c1c(C)nn(-c2nc3c(F)cc(F)cc3s2)c1O` the inhibition was 14.4% and 18.3% and 18% and 0.436% and 15.8% and 1.01% (THP1-Dual; IFN luciferase reporter; 10 µM, with: HT-DNA).
For `CC(C)(C)c1nc(-c2cccc(NS(=O)(=O)c3c(F)cccc3F)c2F)c(-c2ccnc(N)n2)s1`, “late apoptotic cells” read 30.1 ± 3.3% (A2780; annexin V/PI flow cytometry; concentration not given, 48 h; baseline: control subtracted).
For `CCc1ccc(NC(=O)Nc2c[nH]c3ccccc23)cc1`, the phospho-IRF3/IRF3 ratio was 0.118 and 0.103 and 0.084 (THP1-Dual; IRF3 phosphorylation, inhibitor, Western blot densitometry; 20 µM, with: HT-DNA).
`CCOC(=O)C1=C(C)NC2=C(C(=O)OC(c3ccc(OC)c(OC)c3)C2)C1c1ccc(C)cc1` (mixture of isomers) has an EC50 of greater than 20 µM (J774.A1; cytotoxicity).
`CN(C)CCCOc1cc(NC(=O)c2cccc(C(=O)Nc3cc(OCCCN(C)C)c4ccccc4n3)n2)nc2ccccc12` has a selectivity ratio of 0.8 (HT-1080; cell viability, CellTiter-Glo; 72 h; baseline: IC50 HT-1080 over WI-38).
With `CCCCN1C[C@H](O)[C@@H](O)[C@@H](O)[C@H]1CO` the IC50 was 6.9 µM (sample F patient fibroblasts; Gb3 level lowering, LC-MS/MS, refers to: Gb3 d18:1/16:0; 216 h).
`Cc1ccc2c(c1)C(=O)[C@]1(O)CCN(c3ccc4nc(C)ccc4c3)C1=N2.Cl` — result for “protein level increase”: roughly 60% (human and murine cells; Western blot, refers to: NMIIA; concentration not given).
`CCOC(=O)C1=C(C)NC2=C(C(=O)CC(c3ccc(OC)c(OC)c3)C2)C1c1ccccc1Cl` (stereo not shown) gave an EC50 of greater than 20 µM (J774.A1; cytotoxicity).
Under cell proliferation, `CCN1CCN(Cc2ccc(NC(=O)c3ccc(C)c(-c4ccc5nc(NC(=O)C6CC6)cn5n4)c3)cc2C(F)(F)F)CC1` is recorded as “inhibited” (MHHCALL4 B-ALL cells; CellTiter-Glo; concentration not given, 3 d).
For `COc1ccc(-n2nc(C(C)=O)s/c2=N\N=C(/C)c2ccc(NC(=O)c3ccccc3)cc2)cc1`, the viability was 5% (MCF7; 0.312 µM).
For `CCCCc1nc(Cl)c(CO)n1Cc1ccc(-c2ccccc2-c2nn[nH]n2)cc1`, “log2 fold change” read 1.78 (human PBMC; RNA-seq, refers to: SLC1A2 mRNA; 10 µg/mL, 24 h; baseline: untreated control).
The sub-G0 cells of `Cc1cnc(NC2CCOCC2)nc1-n1cnc(C(=O)NC(CN)c2cc(F)cc(Cl)c2)c1` (stereo not shown) is reported as 32.4% (MINO; flow cytometry; 1 µM, 48 h).
For `CCCCC[C@H](O)/C=C/[C@H]1C(=O)C[C@H](O)[C@@H]1C/C=C\CCCC(=O)O`, “HTRF cAMP signal” read 317 a.u. and 322 a.u. and 320 a.u. (HEK293-A2AR cells, SLCO2A1 knockout; HTRF cAMP; 5 µM).
`C[C@H](Nc1ccc2c(c1)OCCn1cc(N3C(=O)OC[C@H]3C(F)F)nc1-2)C(N)=O` — result for “Hill coefficient GR curve”: 0.678 (BT-20; cell growth, CellTiter-Glo; 120 h).
For `C#CCOc1cc(C(=O)Nc2cc(OCCN)c3ccccc3n2)nc(C(=O)Nc2cc(OCCN)c3ccccc3n2)c1`, the selectivity ratio was 0.9 (HT-1080; cell viability, CellTiter-Glo; 72 h; baseline: IC50 HT-1080 over WI-38).
For `Cc1cc(Nc2ncc(Cl)c(Nc3ccccc3S(=O)(=O)C(C)C)n2)c(OC(C)C)cc1C1CCNCC1`, the Emax was 100% (Ba/F3 EML4-ALK v1, no mutation; cell viability).
`O=C(COP(=O)(O)O)[C@@H](O)[C@H](O)[C@H](O)COP(=O)(O)O` gave a lactate production of 1.34 mM and 1.27 mM and 1.24 mM (HepG2 control sgRNA; concentration not given).
With `COc1cnc2cccc(N3CCc4c(cc(Cn5ccnc5C)cc4-c4cn(C)nc4C(F)(F)F)C3=O)c2c1` the EC50 was greater than 30 µM (MDA-MB-175-VII; cell growth, inhibitor; 120 h).
For `c1ccc2[nH]ccc2c1`, “mRNA level, LS mean” read 3.95 counts per million (HCT-8; RNA-seq, refers to: CD7; concentration not given).
The EC50 of `CCOC(=O)C1=C(C)NC2=C(C(=O)OC(c3ccc(OC)c(OC)c3)C2)C1c1cccc(C)c1` (stereo not shown) is reported as greater than 20 µM (J774.A1; cytotoxicity).
`CN(C)c1ncnc2c1ncn2[C@@H]1O[C@H](CO)[C@@H](O)[C@H]1O` has an AP-TGFα release of -0.81% and 0.7% and -1.69% (mock-transfected cells; TGFα shedding, agonist; 1 nM; baseline: unstimulated vehicle control).
`CC[C@H](C)[C@H](NC(=O)[C@H](C)NC(=O)CNC(=O)[C@H](Cc1ccccc1)NC(=O)[C@H](CC(N)=O)NC(=O)[C@H](CC(N)=O)NC(=O)[C@H](CO)NC(=O)[C@H](CO)NC(=O)[C@H](Cc1c[nH]cn1)NC(=O)[C@@H](NC(=O)[C@H](CC(C)C)NC(=O)[C@H](Cc1ccccc1)NC(=O)[C@H](CC(N)=O)NC(=O)[C@H](C)NC(=O)[C@H](CC(C)C)NC(=O)[C@H](CCCNC(=N)N)NC(=O)[C@H](CCC(N)=O)NC(=O)[C@@H](NC(=O)[C@H](C)NC(=O)[C@@H]1CSSC[C@H](NC(=O)[C@@H](N)CCCCN)C(=O)N[C@@H](CC(N)=O)C(=O)N[C@@H]([C@@H](C)O)C(=O)N[C@@H](C)C(=O)N[C@@H]([C@@H](C)O)C(=O)N1)[C@@H](C)O)C(C)C)C(=O)N[C@@H](CC(C)C)C(=O)N[C@@H](CO)C(=O)N[C@@H](CO)C(=O)N[C@H](C(=O)N[C@@H](CC(N)=O)C(=O)N[C@H](C(=O)NCC(=O)N[C@@H](CO)C(=O)N[C@@H](CC(N)=O)C(=O)N[C@H](C(=O)N[C@@H](Cc1ccc(O)cc1)C(N)=O)[C@@H](C)O)C(C)C)[C@@H](C)O`: “intracellular ROS level” 5.99 and 6.08 (INS-1; DCFH-DA flow cytometry; 1 µM, unit not given; baseline: control).
`Cc1cc(OCc2nnc(SC3CCCC3)n2-c2cccnc2)ccc1-c1ccc(S(C)(=O)=O)cc1` has an EC50 of 21.9 µM (BRD4-HiBiT cells; BRD4 degradation rescue, inhibitor; 8 h, with: dBET6 500 nM).
Under “number of downregulated genes”, `Cn1cc(Nc2nccc(-c3ccc4c(c3)CN(C3COC3)CC[C@H]4NC(=O)c3cn(C(C)(C)C)nn3)n2)cn1` is recorded as 0 (human B cells; 100 nM, 64 h, stimulation-downregulated genes, with: CpG ODN2006).
For `O=C(C[C@@H](C(F)F)n1ccc(F)n1)N1CCC(O)(Cn2cnc3c(cnn3-c3ccc(F)cc3)c2=O)CC1`, the viable cells was 83.9% and 89.2% and 90% (CHP-212 resistant subline R3; annexin V/PI flow cytometry; 0.3 µM, 48 h).
For `COC[C@H](NC(=O)c1cnc(C)s1)C(=O)N[C@@H](COC)C(=O)N[C@@H](Cc1ccccc1)C(=O)[C@@]1(C)CO1`, the EC50 was 0.0163 µM (BRD4-HiBiT cells; BRD4 degradation rescue, inhibitor; 24 h, with: dBET6 500 nM).
`Cc1nn(-c2nc3c(F)cc(F)cc3s2)c(O)c1C(c1ccccc1C(F)(F)F)c1c(C)nn(-c2nc3c(F)cc(F)cc3s2)c1O` gave an inhibition of -9.17% and 6.46% and 7.75% and -11.5% and 1.78% and -9.21% (THP1-Dual; IFN luciferase reporter; 5 µM, with: HT-DNA).
For `CC(NCCc1ccc(O)cc1)C(O)c1ccc(O)cc1` (stereo not shown), the Z score was 1.31 (MDA-MB-231 BAX/BAK siRNA knockdown; cell viability, CellTiter-Glo; direction not given).
`Cn1cc(-c2ccc(-c3cncc(Cl)c3N3CCC4(CCNC4=O)CC3)cc2)cn1` — result for “log2 fold change”: 2.51 (COLO 205; gene expression, microarray, refers to: BAMBI mRNA; concentration not given, 2 h; baseline: untreated cells).
For `CCn1cc(-c2cc(Cn3ccnc3)cc3c2CCN([C@H](c2cc(OC)ccn2)C2CC2)C3=O)c(C(F)(F)F)n1`, the EC50 was greater than 30 µM (RL95-2; cell growth, inhibitor; 120 h).
`Nc1cccc2c1C(=O)N(C1CCC(=O)NC1=O)C2=O` (stereo not shown) has a viability of 15% (MM1.S; XTT; 2.5 µM; baseline: untreated).
`CCCCCCOC(=O)[C@]1(O)C[C@@H]2O[C@@]1(C)n1c3ccccc3c3c4c(c5c6ccccc6n2c5c31)C(=O)NC4` — result for “relative cell number”: 107% (SK-OV-3; ATP; 2D monolayer culture; 1 µM, 4 days; baseline: untreated).
The GI50 of `O=C(/C=C/C=C/C=C/C1CCCCC1)NC1=C[C@@](O)(/C=C/C=C/C=C/C(=O)NC2=C(O)CCC2=O)[C@@H]2O[C@@H]2C1=O` is reported as 11.6 µM (NCI-H1650; cell growth, CellTiter-Glo; 78 h).
`CC(C)c1c(C(=O)Nc2ccccc2)c(-c2ccccc2)c(-c2ccc(F)cc2)n1CC[C@@H](O)C[C@@H](O)CC(=O)O` gave a Z score of 0.943 (MDA-MB-231 BAX/BAK siRNA knockdown; cell viability, CellTiter-Glo; direction not given).
`O=P(O)(O)C(O)(Cn1ccnc1)P(=O)(O)O` has a viability of 99 ± 1% (hFOB 1.19; AlamarBlue; 15 µM, 48 h; baseline: control).
`CCc1cnc(N2CCC(c3nc(COc4ccc(-n5cnnn5)cc4)cs3)CC2)nc1` — result for “ATF4-mAPPLE reporter activation”: “inhibited” (HEK-293T ATF4-mAPPLE, HRI CRISPRi knockdown; flow cytometry; 10 µM, 16 h).
For `NS(=O)(=O)OC[C@H]1C[C@@H](Nc2ccnc3cc(-c4cccc(SC(F)(F)F)c4)nn23)[C@H](O)[C@@H]1O`, the EC50 was 0.285 µM (BRD4-HiBiT cells; BRD4 degradation rescue, inhibitor; 8 h, with: dBET6 500 nM).
With `CC/C(=N\NC(=O)NCc1cccc(O)c1)c1ccc(O)c(C)c1O` the log ratio was -3.8 (SK-OV-3; gene expression, microarray, refers to: LAPTM5; 10 µM, 24 h; baseline: DMSO).
With `C=Cc1c2[n-]c(c1C)/C=c1\[n-]/c(c(C)c1C=C)=C\c1[n-]c(c(CCC(=O)O)c1C)/C=c1\[n-]c(c(C)c1CCC(=O)O)=C2.[Sn+4]` the fold change was 2.15 (SH-SY5Y; RNA-seq, refers to: DKK1 mRNA; 5 µM, 5 h; baseline: untreated cells).
`N#C/C(=C\c1c[nH]nc1-c1ccc2ccccc2c1)C(=O)O`: mRNA level “decreased” (LX-2; qPCR, refers to: FN1; 10 µM, hepatic stellate cell activation, with: TGFβ; baseline: untreated).
`CCn1cc(-c2cc(Cn3ccoc3=N)cc3c2CCN([C@@H](C)c2cc(OC)ccn2)C3=O)c(C(F)(F)F)n1` gave an EC50 of 0.159 µM (HPAF-II; cell growth; 120 h).
The maximum inhibition of `C=CC(=O)N1CCC([C@@H]2CCNc3c(C(N)=O)c(-c4ccc(Oc5ccccc5)cc4)nn32)CC1` is reported as 41.9% (TMD8; calcium flux, FLIPR; 4 h preincubation, with: anti-IgM).
For `CCOC(=O)C1=C(C)NC2=C(C(=O)CC(c3cc(OC)c(OC)c(OC)c3)C2)C1c1ccccc1Cl` (mixture of isomers), the EC50 was greater than 20 µM (J774.A1; cytotoxicity).
Under “log2 fold change”, `Cc1cc(Nc2ncc(Cl)c(Nc3ccccc3S(=O)(=O)C(C)C)n2)c(OC(C)C)cc1C1CCNCC1` is recorded as -1.55 (CLB-BAR; phosphoproteomics LC-MS/MS, refers to: LPIN1 phosphorylation; 200 nM, 60 min; baseline: untreated).
For `Clc1nc(NCc2ccco2)c2[nH]cnc2n1`, the ΔPSI was -0.214 (FD iPSC-derived cardiomyocytes; alternative splicing, RNA-seq, refers to: DGKA exon chr12:55940081-55940170; unit not given; baseline: DMSO minus compound).
The TNF production of `Nc1ncnc2c1ncn2[C@@H]1O[C@H](CO)[C@@H](O)[C@H]1O` is reported as 4450 a.u. and 3830 a.u. and 4270 a.u. (activated human T cells; 316 nM; higher = more TNF).
The maximum inhibition of `C=CC(=O)N1CCC[C@@H](c2ccc(C(N)=O)c3[nH]ccc23)C1` is reported as 18% (TMD8; calcium flux, FLIPR; 4 h preincubation, with: anti-IgM).

Repeated from above:
For `c1ccc2[nH]ccc2c1`, “mRNA level, LS mean” read 3.95 counts per million (HCT-8; RNA-seq, refers to: CD7; concentration not given).
For `O=C(C[C@@H](C(F)F)n1ccc(F)n1)N1CCC(O)(Cn2cnc3c(cnn3-c3ccc(F)cc3)c2=O)CC1`, the viable cells was 83.9% and 89.2% and 90% (CHP-212 resistant subline R3; annexin V/PI flow cytometry; 0.3 µM, 48 h).
Under cell proliferation, `CCN1CCN(Cc2ccc(NC(=O)c3ccc(C)c(-c4ccc5nc(NC(=O)C6CC6)cn5n4)c3)cc2C(F)(F)F)CC1` is recorded as “inhibited” (MHHCALL4 B-ALL cells; CellTiter-Glo; concentration not given, 3 d).
